Experimental data of several laboratories.
A part holds a random share of what one study measured. Substitutions count along the parent as printed.

Study 1 — method: RNAcompete; form: RNA; medium: in vitro; concentration: 20 nM; notes: 7-mer, probes averaged, single round; reference: mean of 7-mers; reading: higher = stronger binding; endpoint: 7-mer Z-score
Target: PABPC1L2, full length, GST fusion (mouse, UniProt A0ABA7IW68)
Target sequence (chain): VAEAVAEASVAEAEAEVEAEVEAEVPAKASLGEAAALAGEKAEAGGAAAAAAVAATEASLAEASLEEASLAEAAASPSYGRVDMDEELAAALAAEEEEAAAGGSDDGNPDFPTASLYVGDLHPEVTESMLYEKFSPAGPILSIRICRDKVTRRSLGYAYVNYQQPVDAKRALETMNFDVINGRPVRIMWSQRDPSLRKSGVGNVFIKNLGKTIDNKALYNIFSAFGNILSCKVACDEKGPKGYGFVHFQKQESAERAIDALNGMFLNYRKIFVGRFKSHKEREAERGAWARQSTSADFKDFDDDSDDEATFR
AUUCAAU: -0.0047
CUCGUUG: -0.44
AUCGGCG: -0.0264
UAUGGCG: 0.0315
AGGACGC: 0.164
GUAAGUA: -0.13
AUUAGUU: -0.278
GUGUCGG: -0.00652
GUUACUA: -0.215
CCCAGCU: -0.168

Study 2 — target: CCNA2, cyclin fold, Cln2 fusion (human); method: yeast growth competition, sequencing; medium: yeast; notes: strong parent motif; reference: not given; reading: higher = stronger binding; endpoint: normalised enrichment score
Starting sequence: CDKN1B docking peptide (human); PSACRNLFGPVDH; partner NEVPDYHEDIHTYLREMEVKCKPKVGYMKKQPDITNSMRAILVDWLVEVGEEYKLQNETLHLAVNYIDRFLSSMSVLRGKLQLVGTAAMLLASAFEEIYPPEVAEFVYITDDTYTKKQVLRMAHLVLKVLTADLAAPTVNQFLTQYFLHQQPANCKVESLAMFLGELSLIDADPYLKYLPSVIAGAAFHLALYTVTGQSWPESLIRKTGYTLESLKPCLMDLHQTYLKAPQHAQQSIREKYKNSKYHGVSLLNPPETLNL
V11S: 4.04
H13F: 4.19
A3L: 2.5
R5K: 2.82
V11R: 3.72
L7S: 0.378
A3Q: 0.835
P1C: 2.96
G9Q: 1.48
R5I: 0.385
L7K: 0.759

Study 3 — method: protein-binding microarray; form: double-stranded DNA, one strand shown; medium: in vitro; concentration: 0.8 µM; notes: whole 60-bp probe, no competitor; reading: higher = stronger binding; endpoint: fluorescence intensity; shared flanks, not repeated: … GTCTTGATTCGCTTGACGCTGCTG
Target: Centromere-binding protein 1, full length, N-terminal tag (CBF1, Saccharomyces cerevisiae, UniProt P17106, residues 1-351)
UniProt P17106, sequence (whole entry, looked up): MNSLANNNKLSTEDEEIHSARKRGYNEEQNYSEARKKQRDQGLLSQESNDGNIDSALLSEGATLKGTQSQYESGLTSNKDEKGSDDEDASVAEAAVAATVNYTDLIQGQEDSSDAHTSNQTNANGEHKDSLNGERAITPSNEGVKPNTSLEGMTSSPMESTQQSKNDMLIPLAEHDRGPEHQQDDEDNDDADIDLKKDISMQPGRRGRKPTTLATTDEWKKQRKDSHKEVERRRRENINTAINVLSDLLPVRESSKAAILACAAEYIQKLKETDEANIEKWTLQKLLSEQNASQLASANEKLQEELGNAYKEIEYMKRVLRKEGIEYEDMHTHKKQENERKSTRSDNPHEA
CTAGGAGCATCCAGTCTCACCTGGGTTGGCTCTTTC: 456 a.u.
CTATGGAAACCTTATCATATGAGGTTTGCAAATTTC: 500 a.u.
CTAAATCGCATACTCCACGTGAGAACAAGAAAATTC: 1920 a.u.
TGTACGAAGCTATTCCACGAGGATATAGTAGTTAGG: 550 a.u.
GAATTTTGCATTTGTCACACCACATATTTAAAATAG: 762 a.u.
CTATTATGCATATGAAACGTGATATCCACCGTTTTC: 1080 a.u.
GAACCTGAATGGAAAAACGTGCCCCCATATATGTAG: 865 a.u.
GAATGTAGTGTCATTCACGTTTTCTGGGCGTTCTAG: 711 a.u.
GAAACAGGGAAAGTACACGTGAAATTTTAAACTTAG: 2180 a.u.
GAAATCGTTCAACACCACCTTATTTTCTAACTATAG: 543 a.u.
GAATTGATAGGTGTGTGCGTGTATATACGTGCGTAG: 585 a.u.
CTAAATCATATTTCGCACGTTACCCGACTGCTTTTC: 702 a.u.
CTAAATCACACCGACCACGCTTACATGGACTATTTC: 540 a.u.
CCTAACTACTATAGCCACGCTTTATAGCTTCGTACA: 495 a.u.

Single results of other studies
PhoQ, residues 284 288 289 292 302 303 SACGEM  fold induction (PhoP, residues 12 14 15 18 19 STWGI (Escherichia coli, UniProt P23836); Sort-seq, measured: YFP reporter; E. coli; PhoQ-PhoP variant library, with: 10 µM Mg2+; reference: high Mg2+ state, higher = stronger signaling): 7.78

A few entries again (study 2):
A3Q: 0.835
P1C: 2.96
G9Q: 1.48
R5I: 0.385
L7K: 0.759
